Assay results pooled from the literature.
Protocols differ between the studies behind these lines.

`[O-][N+]1=C(c2ccc(Cl)cc2)C2=NCCCN2c2ccccc21` has an MIC of 0.25 µg/mL (Parvimonas micra; ATCC 3870).
`CN[C@@H]1[C@H](O)[C@H](NC)[C@H]2O[C@]3(O)[C@H](O[C@@H]2[C@H]1O)O[C@H](C)C[C@@]3(O)CNCc1ccc(Cl)cc1` has an MIC of 0.8 to 1.6 µg/mL (Streptococcus pyogenes; ATCC 700294).
The MIC of `CC[C@H](C)[C@H](NC(=O)[C@@H](NC(=O)CN)C(C)C)C(=O)N[C@@H](Cc1ccccc1)C(=O)N[C@@H](CC(N)=O)C(=O)N[C@@H](C)C(=O)N[C@@H](CC(C)C)C(=O)N[C@@H](CCCCN)C(=O)NCC(=O)N[C@H](C(=O)N[C@@H](C)C(=O)N[C@@H](CCCCN)C(=O)N[C@H](C(=O)N[C@H](C(=O)N[C@@H](C)C(=O)N[C@@H](C)C(=O)N[C@@H](CCC(N)=O)C(=O)N[C@@H](CC(C)C)C(=O)N[C@@H](CC(C)C)C(=O)N[C@@H](CCCCN)C(=O)N[C@@H](CCCCN)C(=O)N[C@@H](C)C(=O)N[C@@H](CCCNC(=N)N)C(=O)N[C@H]1CSSC[C@@H](C(=O)O)NC(=O)[C@H](CO)NC(=O)[C@H](CCCCN)NC(=O)[C@H](CC(=O)O)NC(=O)[C@H](CC(C)C)NC(=O)[C@H](CCCCN)NC1=O)C(C)C)[C@@H](C)O)C(C)C` is reported as 2000 nM (Staphylococcus aureus; NCTC 10788, Mueller-Hinton broth; with: NaCl 150 mM).
With `CN1C(=O)[C@@H]2NC(=O)[C@@H]3NC(=O)[C@@H](c4ccc(O)cc4)NC(=O)[C@H](NC(=O)C(N)c4ccc(O)cc4)Cc4c[nH]c5cc(ccc45)-c4cc3cc(c4O)Oc3ccc(cc3)C[C@H]1C(=O)N[C@@H](C(=O)O)c1ccc(O)c(c1)Oc1ccc2cc1` (some centres unmarked) the MIC was 4 to 8 µg/mL (Enterococcus faecium; WCC 0534, VRE-A).
`CCCCCCCCCCCCCCCCCCSCC1OC(OC2C(N)CC(N)C(OC3OC(CN)C(O)CC3N)C2O)C(O)C(N)C1O` (centres unmarked) has an MIC of over 150 µg/mL (Bacillus cereus; ATCC 11778).
`CCC(CC)C(=O)O[C@H]1[C@H](C)[C@H](O)[C@H](C)[C@@H](O)[C@@H](C)/C=C/C=C(/C)C(=O)NC2=C3NC4(CCN(CC(C)C)CC4)N=C3c3c(c(O)c(C)c4c3C(=O)[C@@](C)(O/C=C/[C@H](OC)[C@H]1C)O4)C2=O` has an MIC of 49 nM (Mycobacteroides abscessus; ATCC 19977 arr deletion; 90% growth inhibition).
The MIC of `CCCCCCCCOC(=O)[C@@H]1NC(=O)[C@@H]2Cc3ccc(cc3)Oc3cc4cc(c3O)-c3ccc5c(c[nH]c5c3)C[C@@H](NC(=O)C(N)c3ccc(O)cc3)C(=O)N[C@H](c3ccc(O)cc3)C(=O)N[C@H]4C(=O)N[C@@H](C(=O)N2C)c2ccc(cc2)Oc2cc1ccc2O` (some centres unmarked) is reported as over 128 µg/mL (Enterococcus faecium; brain heart infusion medium).
The MIC of `CO[C@H]1/C=C/O[C@@]2(C)Oc3c(C)c(O)c4c(c3C2=O)C2=NC3(CCN(CC(C)C)CC3)NC2=C(NC(=O)/C(C)=C\C=C\[C@H](C)[C@H](O)[C@@H](C)[C@@H](O)[C@@H](C)[C@H](OC(=O)c2nccs2)[C@@H]1C)C4=O` is reported as 17 nM (Mycobacteroides abscessus; ATCC 19977 arr deletion; 90% growth inhibition).
`CN[C@@H]1[C@H](O)[C@H](NC)[C@H]2O[C@]3(O)[C@H](O[C@@H]2[C@H]1O)O[C@H](C)C[C@@]3(O)CNCCc1ccc(F)cc1` has an MIC of over 200 µg/mL (Mycobacteroides abscessus; ATCC 19977 resistant mutants, helix 34 mutations).
The MIC of `COc1ccc(C2=[N+]([O-])c3ccccc3N3CCN=C23)cc1` is reported as at most 0.06 µg/mL (Parvimonas micra; ATCC 3870).
`CN[C@@H]1[C@H](O)[C@H](NC)[C@H]2O[C@]3(O)[C@H](O[C@@H]2[C@H]1O)O[C@H](C)C[C@@]3(O)CNCCC1CCOCC1` gave an MIC of 8 µg/mL (Mycobacteroides abscessus; ATCC 19977 ∆whiB7; 120 h).
With `CCCCCCCCCCCC[S+]([O-])CC1OC(OC2C(N)CC(N)C(OC3OC(CN)C(O)CC3N)C2O)C(O)C(N)C1O` (mixture of isomers) the MIC was 150 µg/mL (Shigella; clinical isolate).
For `CCCCc1ccc(-c2nc(C)c(C(C)=NNC(=N)N)s2)cc1`, the MIC was 2.6 µg/mL (Staphylococcus aureus; NRS37 VISA).
With `COc1ccc(C2=[N+]([O-])c3ccccc3N3CCCN=C23)cc1` the MIC was 0.25 µg/mL (Parvimonas micra; ATCC 3870).
`CO[C@H]1/C=C/O[C@@]2(C)Oc3c(C)c(O)c4c(c3C2=O)C2=NC3(CCN(CC(C)C)CC3)NC2=C(NC(=O)/C(C)=C\C=C\[C@H](C)[C@H](O)[C@@H](C)[C@@H](O)[C@@H](C)[C@H](OC(=O)c2ccc(C)cc2)[C@@H]1C)C4=O` gave an MIC of 110 nM (Mycobacteroides abscessus; ATCC 19977 arr deletion; 90% growth inhibition).
With `CC(=O)OC1C(C)C(OC2CC3OCOC3C(C)O2)C=COC2(C)Oc3c(C)c(O)c4c(c3C2=O)C(=O)C=C(NC(=O)C(C)=CC=CC(C(C)OC(=O)C(C)(C)CC(=O)O)C(O)C(C)C(O)C1C)C4=O` (centres unmarked) the MIC was over 128 µg/mL (Salmonella enterica Typhimurium; NCTC 74).
`CN1C(=O)[C@@H]2NC(=O)[C@@H]3NC(=O)[C@@H](c4ccc(O)cc4)NC(=O)[C@H](NC(=O)C(N)c4ccc(O)cc4)Cc4c[nH]c5cc(ccc45)-c4cc3cc(c4O)Oc3ccc(cc3)C[C@H]1C(=O)N[C@@H](C(=O)NCCCN)c1ccc(O)c(c1)Oc1ccc2cc1` (some centres unmarked) has an MIC of 1 to 2 µg/mL (Enterococcus faecium; brain heart infusion medium).
With `[O-][N+]1=C(c2ccccc2)C2=NCCCN2c2ncccc21` the MIC was at most 0.06 µg/mL (Porphyromonas sp.).
`CC[C@H](C)[C@H](NC(=O)[C@H](CO)NC(=O)[C@H](CO)NC(=O)[C@H](Cc1ccccc1)NC(=O)CN)C(=O)N[C@@H](Cc1ccccc1)C(=O)N[C@@H](CCCNC(=N)N)C(=O)NCC(=O)N[C@H](C(=O)N[C@@H](C)C(=O)N[C@@H](CCCCN)C(N)=O)C(C)C` gave an MIC of over 128000 nM (Escherichia coli; ATCC 8739; with: 8 mM ZnCl2).
`CN[C@@H]1[C@H](O)[C@H](NC)[C@H]2O[C@]3(O)[C@H](O[C@@H]2[C@H]1O)O[C@H](C)C[C@@]3(O)CNCc1ccc(F)cc1` gave an MIC of 16 µg/mL (Mycobacteroides abscessus; ATCC 19977 ∆whiB7 ∆tap; 120 h).
`CN(C)CCCNC(=O)[C@@H]1NC(=O)[C@@H]2Cc3ccc(cc3)Oc3cc4cc(c3O)-c3ccc5c(c[nH]c5c3)C[C@@H](NC(=O)C(NC(=O)CCCCCN)c3ccc(O)cc3)C(=O)N[C@H](c3ccc(O)cc3)C(=O)N[C@H]4C(=O)N[C@@H](C(=O)N2C)c2ccc(cc2)Oc2cc1ccc2O` (some centres unmarked) has an MIC of 0.5 to 1 µg/mL (Enterococcus faecium; WCC 0533, VRE-A).
With `[O-][N+]1=C(c2ccsc2)C2=NCCCN2c2ccccc21` the MIC was 0.125 µg/mL (Porphyromonas sp.).
For `OB(O)c1cnn(-c2cc(Cl)ncn2)c1`, the MIC was 1 µg/mL (Enterobacter cloacae; bacterial growth; AmpC-overproducing clinical isolate; cefotaxime alone).
`Cc1ccc(SCC2OC(OC3C(N)CC(N)C(OC4OC(CN)C(O)CC4N)C3O)C(O)C(N)C2O)cc1` (centres unmarked) has an MIC of 18.8 µg/mL (Streptococcus pyogenes; M12 MGAS9429).
The MIC of `[O-][N+]1=C(Cc2ccccc2)C2=NCCCN2c2ccccc21` is reported as 1 µg/mL (Porphyromonas sp.).
With `CN1C(=O)[C@@H]2NC(=O)[C@@H]3NC(=O)[C@@H](c4ccc(O)cc4)NC(=O)[C@H](NC(=O)C(NCc4cc(C(F)(F)F)cc(C(F)(F)F)c4)c4ccc(O)cc4)Cc4c[nH]c5cc(ccc45)-c4cc3cc(c4O)Oc3ccc(cc3)C[C@H]1C(=O)N[C@@H](C(=O)O)c1ccc(O)c(c1)Oc1ccc2cc1` (some centres unmarked) the MIC was 8 to 16 µg/mL (Enterococcus faecium; brain heart infusion medium).

Repeated from above:
With `[O-][N+]1=C(c2ccsc2)C2=NCCCN2c2ccccc21` the MIC was 0.125 µg/mL (Porphyromonas sp.).
`CCCCCCCCCCCCCCCCCCSCC1OC(OC2C(N)CC(N)C(OC3OC(CN)C(O)CC3N)C2O)C(O)C(N)C1O` (centres unmarked) has an MIC of over 150 µg/mL (Bacillus cereus; ATCC 11778).
For `CCCCc1ccc(-c2nc(C)c(C(C)=NNC(=N)N)s2)cc1`, the MIC was 2.6 µg/mL (Staphylococcus aureus; NRS37 VISA).
`CN1C(=O)[C@@H]2NC(=O)[C@@H]3NC(=O)[C@@H](c4ccc(O)cc4)NC(=O)[C@H](NC(=O)C(N)c4ccc(O)cc4)Cc4c[nH]c5cc(ccc45)-c4cc3cc(c4O)Oc3ccc(cc3)C[C@H]1C(=O)N[C@@H](C(=O)NCCCN)c1ccc(O)c(c1)Oc1ccc2cc1` (some centres unmarked) has an MIC of 1 to 2 µg/mL (Enterococcus faecium; brain heart infusion medium).
